Assay results pooled from the literature.
Each numbered part is a random draw from the data of one study; scales do not carry over between parts.

Series 1
Target: RNA binding protein fox-1 homolog 2, RRM domain, GST-SBP tag (RBFOX2, Homo sapiens, UniProt O43251-10, residues 100-194)
Method: RNA Bind-n-Seq
Form: RNA
Matrix: in vitro
Concentration: 365 nM
Setting: natural RNA segment, single round, ends assumed
Relative to: no-protein control
Direction: higher = stronger binding
Target sequence (chain): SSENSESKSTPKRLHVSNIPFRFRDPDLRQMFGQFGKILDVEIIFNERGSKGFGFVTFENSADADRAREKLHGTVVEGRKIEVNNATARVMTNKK
Under “RBNS enrichment (R)”, `GGGAGUUCUACAGUCCGACGAUCAGCCUUCAGCCCUGCUGCCCUGCCUGUGGGAGCAGCUUUGACUCCAGUCCAGAAGGGUUUCUGCAGACUGUGUUGGGUGAGACGCAGAAAGGAUGAAAUCUCAGAACACAUGGAAUUCUCGGGUGCCAA` is recorded as 0.74.
Under “RBNS enrichment (R)”, `GGGAGUUCUACAGUCCGACGAUCCUCAUUUGUCCAAAUUUCUGGGCUCAGCGCUUGGGAGGGCAGGAGCCCUGGCACUAAUGCUGUACAGGUUUUUUUCCUGUUAGGAGAGCUGAGGCCAGCUGCCCACUGAGUGGAAUUCUCGGGUGCCAA` is recorded as 0.368.
`GGGAGUUCUACAGUCCGACGAUCAAGAACAUUUUUAAUUCUUUAGGAAUCUGCAAUGAGUGAUUACAUGCUUGUAAUAGGUAGGCAAUUCCUUGAUUACAGGAAGCUUUUAUAUUACUUGAGUAUUUCUGUCUUGGAAUUCUCGGGUGCCAA` — result for “RBNS enrichment (R)”: 0.319.
`GGGAGUUCUACAGUCCGACGAUCUAGAGAAACAGCACAAUCAAUUCCAAAUGGUAUGAGAUGGAUUGGAAGUGGCCAGCAGCAAGUUCUGGUGACGGGACAGAGUGGCCUUGGAUGUCUUUGGUAUUUUCUGUUGGAAUUCUCGGGUGCCAA` — result for “RBNS enrichment (R)”: 0.609.

Series 2
Target: Sal-like protein 4, full length isoform B (SALL4, Homo sapiens, UniProt Q9UJQ4-2, residues 1-616)
Method: universal PBM
Form: double-stranded DNA, one strand shown
Matrix: in vitro
Concentration: not given
Setting: 8-mer, flanks averaged, mean of replicates
Direction: higher = stronger binding
For `CGCTCTCC`, the E-score was -0.259.
`ATCTCAAC` has an E-score of 0.157.
For `CTTGTTCA`, the E-score was 0.0948.
`CATCGTGG` gave an E-score of -0.282.
The E-score of `AACCGCCA` is reported as -0.204.
The E-score of `CGCGGAAG` is reported as -0.188.
For `ATATACCG`, the E-score was 0.163.

Series 3
Target: Histone acetyltransferase KAT6A, both winged helices, GST fusion (KAT6A, Homo sapiens, UniProt Q92794, residues 1-181)
Method: protein binding microarray
Form: double-stranded DNA, one strand shown
Matrix: in vitro
Concentration: not given
Setting: 8-mer, flanks averaged, mean of 2 arrays, mostly near background
Relative to: not given
Direction: higher = stronger binding
Target sequence (chain): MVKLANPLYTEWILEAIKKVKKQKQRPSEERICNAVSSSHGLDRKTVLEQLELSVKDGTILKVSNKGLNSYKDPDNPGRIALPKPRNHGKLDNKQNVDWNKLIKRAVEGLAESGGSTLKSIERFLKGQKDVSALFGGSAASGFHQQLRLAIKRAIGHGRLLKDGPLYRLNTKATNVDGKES
`GATACAAA` has an E-score of 0.0306.
`CACTCAGA` gave an E-score of -0.12.
`AAATCCGT` has an E-score of 0.0929.
`TCGATGAA` gave an E-score of 0.102.
The E-score of `GCACCCCA` is reported as -0.0887.

Single results of other studies
The fold induction of `PhoQ, residues 284 288 289 292 302 303 SLANIV` is reported as 10.6 (PhoP, residues 12 14 15 18 19 HEGLL (Escherichia coli, UniProt P23836); Sort-seq, measured: YFP reporter; E. coli; PhoQ-PhoP variant library, added: 10 µM Mg2+; relative to: high Mg2+ state, higher = stronger signaling).
